Results pooled from the literature.
Protocols differ between the studies behind these lines.
Cell line: HCT-116

SMILES | assay | conditions | how to read | endpoint | value
C=C(CO)[C@H]1Cc2c(ccc3c2O[C@@H]2COc4cc(OC)c(OC)cc4[C@]2(O)C3=O)O1 | cell growth or viability, MTT | 72 h |  | IC50 | 16.6 µM
CC(C)C[C@H](NC(=O)[C@H](C)NC(=O)[C@H](CCCCN)NC(=O)[C@H](C)NC(=O)[C@H](C)NC(=O)[C@@H]1CSCc2cccc(c2)CSC[C@H](NC(=O)[C@H](CCCCN)NC(=O)[C@H](Cc2ccccc2)NC(=O)CN)C(=O)N[C@@H](CC(C)C)C(=O)N[C@@H](CC(C)C)C(=O)N[C@@H](CCCCN)C(=O)N1)C(=O)N[C@H](C(=O)N[C@@H](CCCCN)C(=O)N[C@H](C(=O)N[C@H](C(=O)N[C@@H](CC(C)C)C(=O)N[C@@H](Cc1ccccc1)C(N)=O)C(C)C)[C@@H](C)O)C(C)C | cell growth or viability, CCK-8 |  |  | IC50 | 20.9 µM
C=C(C)CC(OC)C(O)C(=O)NC(OC)C1CC(OC(C)=O)C(C)(C)C(CC(O)C(C)C2Cc3c(C)c(O)cc(O)c3C(=O)O2)O1 (single isomer, unassigned; (+)) | cell growth or viability |  |  | IC50 | 0.002 µM
Cc1cc(O)cc(-c2nc(Nc3cc(C(F)(F)F)cc(C(F)(F)F)c3)ncc2-c2ccnc(Cl)c2)c1 | annexin V-FITC/PI flow cytometry | 10 µM, 48 h, unit not given | reference: control | apoptotic cells | 2.1
COc1ccccc1/C=C1\SC(=O)N(CC(=O)Nc2ccc(C(=O)Nc3ccc([N+](=O)[O-])cc3)cc2)C1=O | MTT |  | reference: IC50 Vero over IC50 HCT-116 | selectivity index | 19.5
COc1cc(C)cc2c1OCO2 | cell growth or viability, MTT | 72 h |  | GI50 | 32.9 µM
COC1CC(=O)N(C)C=CCCCC(=O)N(C)C(C(C)C)C(=O)N(C)C(CC(C)C)C(=O)OC(C(C)C)CC(C)C1 (stereo not shown) | RNA sequencing, item: cholesterol biosynthesis superpathway | 20 µM, 12 h | direction not given | pathway activation z-score | 2
C=CCc1cc2c(c(OC)c1OC)OCO2 | cell growth or viability, MTT | 72 h |  | GI50 | > 250 µM
[Ga+3].[O-]c1ccc(Br)c2cccnc12.[O-]c1ccc(Br)c2cccnc12.[O-]c1ccc(Br)c2cccnc12 | cell growth or viability, MTT | 72 h |  | IC50 | 1.2 µM
C=CCc1cc(OC)c(OC)c(OC)c1OC | cell growth or viability | 72 h |  | GI50 | > 250 µM
CC[C@H](C)[C@H](NC(=O)[C@H](Cc1ccc(O)cc1)NC(=O)[C@@H]1CCCN1C(=O)[C@H](C)NC(=O)[C@H](CC(C)C)NC(=O)[C@H](C)NC(=O)CCCCCNC(=O)[C@H](Cc1ccc(O)cc1)NC(=O)[C@H](Cc1c[nH]cn1)NC(=O)[C@H](CCSC)NC(=O)[C@H](CCSC)NC(=O)[C@H](CC(=O)O)NC(=O)[C@@H]1CCCN1C(=O)[C@@H]1CCCN1C(=O)[C@H](Cc1c[nH]c2ccccc12)NC(=O)[C@H](CO)NC(=O)[C@@H](NC(=O)[C@H](Cc1ccc(O)cc1)NC(=O)[C@H](Cc1ccc(O)cc1)NC(C)=O)C(C)C)C(=O)N1CCC[C@H]1C(=O)N[C@@H](Cc1ccc(O)cc1)C(=O)NCC(=O)N[C@@H](CCCNC(=N)N)C(=O)N[C@@H](CCCCN)C(=O)N[C@@H](CCCCN)C(=O)N[C@@H](CCCNC(=N)N)C(=O)N[C@@H](CCCNC(=N)N)C(=O)N[C@@H](CCC(N)=O)C(=O)N[C@@H](CCCNC(=N)N)C(=O)N[C@@H](CCCNC(=N)N)C(=O)N[C@@H](CCCNC(=N)N)C(N)=O | cell growth or viability, CCK-8 |  |  | IC50 | 14.9 µM
CCCc1cc2c(c(OC)c1OC)OCO2 | cell growth or viability | 72 h |  | GI50 | > 250 µM
CC(C)C[C@H](NC(=O)[C@H](C)NC(=O)[C@H](CCCCN)NC(=O)[C@H](C)NC(=O)[C@H](C)NC(=O)CNC(=O)[C@H](CCCCN)NC(=O)[C@H](CC(C)C)NC(=O)[C@H](CC(C)C)NC(=O)[C@H](CC(=O)O)NC(=O)[C@H](CCCCN)NC(=O)[C@H](Cc1ccccc1)NC(=O)CN)C(=O)N[C@H](C(=O)N[C@@H](CCCCN)C(=O)N[C@H](C(=O)N[C@H](C(=O)N[C@@H](CC(C)C)C(=O)N[C@@H](Cc1ccccc1)C(N)=O)C(C)C)[C@@H](C)O)C(C)C | cell growth or viability, CCK-8 |  |  | IC50 | 18.8 µM

Some of these lines once more:
SMILES | assay | conditions | how to read | endpoint | value
[Ga+3].[O-]c1ccc(Br)c2cccnc12.[O-]c1ccc(Br)c2cccnc12.[O-]c1ccc(Br)c2cccnc12 | cell growth or viability, MTT | 72 h |  | IC50 | 1.2 µM
C=CCc1cc(OC)c(OC)c(OC)c1OC | cell growth or viability | 72 h |  | GI50 | > 250 µM
